Results collected from several papers.
Each line is one published result; not all experiments were run side by side. “And” joins repeats or separate records; there may be more than shown. ± gives the spread as reported.

Sequences of proteins named here, by UniProt entry; tags and fusion partners are left off. Residues count along the entry.
UniProt Q9UM73, whole entry, looked up: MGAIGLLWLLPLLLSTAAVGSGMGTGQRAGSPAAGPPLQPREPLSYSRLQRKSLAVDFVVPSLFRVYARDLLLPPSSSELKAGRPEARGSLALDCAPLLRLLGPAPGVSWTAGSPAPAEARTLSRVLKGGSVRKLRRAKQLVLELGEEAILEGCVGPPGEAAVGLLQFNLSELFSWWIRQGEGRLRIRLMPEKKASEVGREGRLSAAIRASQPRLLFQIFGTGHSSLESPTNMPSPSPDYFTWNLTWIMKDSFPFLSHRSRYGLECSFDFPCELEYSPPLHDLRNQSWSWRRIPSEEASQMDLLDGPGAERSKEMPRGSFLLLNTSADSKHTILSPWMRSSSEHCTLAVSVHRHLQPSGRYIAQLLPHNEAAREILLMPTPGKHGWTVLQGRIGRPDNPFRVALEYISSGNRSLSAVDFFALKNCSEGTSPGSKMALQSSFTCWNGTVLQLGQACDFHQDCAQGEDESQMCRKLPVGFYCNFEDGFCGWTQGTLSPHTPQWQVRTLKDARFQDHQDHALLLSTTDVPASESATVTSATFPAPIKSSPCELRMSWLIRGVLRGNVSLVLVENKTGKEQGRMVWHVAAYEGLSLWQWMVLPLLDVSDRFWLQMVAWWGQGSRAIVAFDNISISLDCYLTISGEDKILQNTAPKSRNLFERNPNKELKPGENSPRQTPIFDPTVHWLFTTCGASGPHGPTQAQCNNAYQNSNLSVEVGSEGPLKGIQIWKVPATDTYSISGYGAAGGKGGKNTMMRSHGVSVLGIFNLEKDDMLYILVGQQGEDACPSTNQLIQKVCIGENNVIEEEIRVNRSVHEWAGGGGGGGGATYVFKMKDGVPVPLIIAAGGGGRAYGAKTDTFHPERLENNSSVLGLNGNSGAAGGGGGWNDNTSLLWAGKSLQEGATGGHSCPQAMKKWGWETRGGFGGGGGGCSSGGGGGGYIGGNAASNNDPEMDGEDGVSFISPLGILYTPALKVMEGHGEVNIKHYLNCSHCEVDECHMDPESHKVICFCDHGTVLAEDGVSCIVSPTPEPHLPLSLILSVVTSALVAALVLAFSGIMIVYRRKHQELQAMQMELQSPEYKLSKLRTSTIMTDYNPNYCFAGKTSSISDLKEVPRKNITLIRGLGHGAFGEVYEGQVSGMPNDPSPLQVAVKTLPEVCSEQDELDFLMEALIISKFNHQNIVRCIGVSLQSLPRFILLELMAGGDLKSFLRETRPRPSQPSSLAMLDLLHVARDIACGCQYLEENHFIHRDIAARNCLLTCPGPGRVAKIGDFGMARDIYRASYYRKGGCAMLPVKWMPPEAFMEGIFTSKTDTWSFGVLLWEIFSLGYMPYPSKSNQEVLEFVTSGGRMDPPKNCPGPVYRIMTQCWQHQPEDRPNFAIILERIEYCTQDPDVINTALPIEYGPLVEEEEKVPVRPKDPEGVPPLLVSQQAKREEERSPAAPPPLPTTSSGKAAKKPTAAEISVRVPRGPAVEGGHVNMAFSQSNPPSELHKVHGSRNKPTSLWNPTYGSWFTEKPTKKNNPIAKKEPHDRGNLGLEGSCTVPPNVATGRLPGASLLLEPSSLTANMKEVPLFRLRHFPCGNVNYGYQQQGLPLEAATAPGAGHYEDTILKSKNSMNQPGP
UniProt Q9Y253, 1-437 limits assumed: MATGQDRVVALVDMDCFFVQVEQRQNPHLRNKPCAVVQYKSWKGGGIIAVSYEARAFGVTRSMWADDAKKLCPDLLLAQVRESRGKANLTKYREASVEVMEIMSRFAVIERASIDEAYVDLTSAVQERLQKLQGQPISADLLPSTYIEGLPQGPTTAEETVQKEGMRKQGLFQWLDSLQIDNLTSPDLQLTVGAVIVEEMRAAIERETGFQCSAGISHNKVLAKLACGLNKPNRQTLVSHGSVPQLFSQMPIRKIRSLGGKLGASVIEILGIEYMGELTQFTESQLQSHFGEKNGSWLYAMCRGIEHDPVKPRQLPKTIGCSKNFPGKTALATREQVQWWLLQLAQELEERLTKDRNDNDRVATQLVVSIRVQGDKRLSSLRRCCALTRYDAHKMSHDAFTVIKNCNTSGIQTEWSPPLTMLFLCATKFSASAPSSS
UniProt Q08210, 158-569 limits assumed: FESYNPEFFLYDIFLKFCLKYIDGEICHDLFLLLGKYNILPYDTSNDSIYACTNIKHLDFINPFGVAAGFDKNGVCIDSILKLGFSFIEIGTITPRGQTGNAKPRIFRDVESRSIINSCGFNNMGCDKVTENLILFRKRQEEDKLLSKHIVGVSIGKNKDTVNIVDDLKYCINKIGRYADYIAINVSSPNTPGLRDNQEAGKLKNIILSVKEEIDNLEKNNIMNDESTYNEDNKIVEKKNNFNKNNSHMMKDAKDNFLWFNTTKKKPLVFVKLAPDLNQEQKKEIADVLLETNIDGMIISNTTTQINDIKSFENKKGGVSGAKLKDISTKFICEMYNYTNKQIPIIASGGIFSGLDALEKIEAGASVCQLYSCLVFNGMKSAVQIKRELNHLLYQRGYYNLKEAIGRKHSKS
UniProt P11362, 22-822 limits assumed: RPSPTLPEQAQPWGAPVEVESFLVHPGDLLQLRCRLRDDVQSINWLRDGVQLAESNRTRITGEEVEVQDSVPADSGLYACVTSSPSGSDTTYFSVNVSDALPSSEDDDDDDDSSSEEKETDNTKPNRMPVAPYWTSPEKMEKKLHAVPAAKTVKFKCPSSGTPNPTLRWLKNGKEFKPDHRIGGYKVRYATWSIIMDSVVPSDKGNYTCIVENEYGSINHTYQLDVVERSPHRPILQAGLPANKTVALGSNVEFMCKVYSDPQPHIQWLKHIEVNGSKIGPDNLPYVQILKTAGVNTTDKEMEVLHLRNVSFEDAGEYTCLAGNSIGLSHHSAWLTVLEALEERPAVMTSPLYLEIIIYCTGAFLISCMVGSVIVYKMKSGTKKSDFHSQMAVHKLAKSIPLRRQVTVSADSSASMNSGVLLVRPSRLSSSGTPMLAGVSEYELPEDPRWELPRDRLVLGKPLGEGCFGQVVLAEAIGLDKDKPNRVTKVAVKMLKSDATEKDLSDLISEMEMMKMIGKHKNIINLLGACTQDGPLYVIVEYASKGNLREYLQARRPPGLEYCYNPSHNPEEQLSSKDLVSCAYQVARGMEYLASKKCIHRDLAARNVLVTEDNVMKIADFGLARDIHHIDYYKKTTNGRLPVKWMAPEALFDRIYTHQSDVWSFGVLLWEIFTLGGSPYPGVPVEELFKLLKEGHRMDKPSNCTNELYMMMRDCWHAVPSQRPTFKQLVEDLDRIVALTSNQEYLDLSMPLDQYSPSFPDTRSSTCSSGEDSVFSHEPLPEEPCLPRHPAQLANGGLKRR
UniProt P23219, 24-599 limits assumed: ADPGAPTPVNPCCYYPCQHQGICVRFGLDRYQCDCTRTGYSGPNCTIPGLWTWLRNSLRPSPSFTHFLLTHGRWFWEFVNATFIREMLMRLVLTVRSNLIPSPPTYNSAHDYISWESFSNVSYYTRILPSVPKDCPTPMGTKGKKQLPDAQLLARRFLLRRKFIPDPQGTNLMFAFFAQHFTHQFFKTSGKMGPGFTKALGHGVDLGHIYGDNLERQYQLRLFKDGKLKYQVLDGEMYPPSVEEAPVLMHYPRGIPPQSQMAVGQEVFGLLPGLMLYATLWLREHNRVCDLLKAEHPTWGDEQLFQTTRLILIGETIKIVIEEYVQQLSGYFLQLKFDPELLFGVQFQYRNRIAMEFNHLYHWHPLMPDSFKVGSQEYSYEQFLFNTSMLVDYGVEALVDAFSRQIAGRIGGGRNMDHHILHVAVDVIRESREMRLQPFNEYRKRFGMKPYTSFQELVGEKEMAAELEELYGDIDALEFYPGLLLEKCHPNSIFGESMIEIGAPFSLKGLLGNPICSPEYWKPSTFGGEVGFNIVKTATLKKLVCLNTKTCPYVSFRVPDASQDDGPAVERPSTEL
UniProt A4HTR0, 1-443: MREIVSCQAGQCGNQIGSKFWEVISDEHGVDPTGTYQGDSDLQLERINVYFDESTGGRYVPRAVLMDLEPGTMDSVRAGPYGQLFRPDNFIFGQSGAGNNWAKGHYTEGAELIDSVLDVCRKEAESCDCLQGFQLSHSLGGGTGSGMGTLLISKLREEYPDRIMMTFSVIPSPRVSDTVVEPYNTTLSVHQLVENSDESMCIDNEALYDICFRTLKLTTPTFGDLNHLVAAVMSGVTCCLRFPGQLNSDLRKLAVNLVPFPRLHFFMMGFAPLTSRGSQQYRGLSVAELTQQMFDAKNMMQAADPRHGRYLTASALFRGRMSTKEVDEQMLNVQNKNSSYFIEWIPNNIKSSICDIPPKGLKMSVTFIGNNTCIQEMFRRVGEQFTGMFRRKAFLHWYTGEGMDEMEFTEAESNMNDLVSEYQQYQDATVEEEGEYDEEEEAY
UniProt O95835, whole entry: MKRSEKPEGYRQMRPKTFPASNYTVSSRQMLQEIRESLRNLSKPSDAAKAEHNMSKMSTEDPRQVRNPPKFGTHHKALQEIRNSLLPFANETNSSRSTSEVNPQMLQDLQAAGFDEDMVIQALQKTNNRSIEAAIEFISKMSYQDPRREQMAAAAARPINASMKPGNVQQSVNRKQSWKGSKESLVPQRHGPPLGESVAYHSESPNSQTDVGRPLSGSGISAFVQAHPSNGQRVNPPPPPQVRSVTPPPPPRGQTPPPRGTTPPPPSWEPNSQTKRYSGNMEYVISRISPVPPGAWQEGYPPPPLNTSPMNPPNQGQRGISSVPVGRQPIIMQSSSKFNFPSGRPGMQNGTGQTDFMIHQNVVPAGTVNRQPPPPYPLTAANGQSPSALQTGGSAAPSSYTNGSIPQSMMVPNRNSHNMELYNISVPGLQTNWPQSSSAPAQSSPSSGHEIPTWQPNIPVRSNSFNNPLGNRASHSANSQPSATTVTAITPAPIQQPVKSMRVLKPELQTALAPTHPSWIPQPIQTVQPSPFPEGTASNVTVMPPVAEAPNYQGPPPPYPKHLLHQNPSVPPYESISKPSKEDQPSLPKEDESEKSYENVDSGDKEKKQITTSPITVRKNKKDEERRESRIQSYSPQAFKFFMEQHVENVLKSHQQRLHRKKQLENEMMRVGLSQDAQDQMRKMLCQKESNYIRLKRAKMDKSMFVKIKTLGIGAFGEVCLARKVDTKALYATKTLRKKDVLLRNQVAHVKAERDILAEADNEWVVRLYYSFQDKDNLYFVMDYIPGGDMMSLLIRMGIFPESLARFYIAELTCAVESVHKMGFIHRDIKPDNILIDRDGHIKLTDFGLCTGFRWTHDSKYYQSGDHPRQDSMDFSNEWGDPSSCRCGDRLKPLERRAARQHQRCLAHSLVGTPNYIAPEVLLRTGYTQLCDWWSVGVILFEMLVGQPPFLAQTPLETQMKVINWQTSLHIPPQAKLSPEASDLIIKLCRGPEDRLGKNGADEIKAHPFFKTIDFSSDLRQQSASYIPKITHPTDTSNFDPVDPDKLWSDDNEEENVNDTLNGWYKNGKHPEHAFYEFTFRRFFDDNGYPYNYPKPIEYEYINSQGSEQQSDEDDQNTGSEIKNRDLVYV
UniProt P05067, whole entry, looked up: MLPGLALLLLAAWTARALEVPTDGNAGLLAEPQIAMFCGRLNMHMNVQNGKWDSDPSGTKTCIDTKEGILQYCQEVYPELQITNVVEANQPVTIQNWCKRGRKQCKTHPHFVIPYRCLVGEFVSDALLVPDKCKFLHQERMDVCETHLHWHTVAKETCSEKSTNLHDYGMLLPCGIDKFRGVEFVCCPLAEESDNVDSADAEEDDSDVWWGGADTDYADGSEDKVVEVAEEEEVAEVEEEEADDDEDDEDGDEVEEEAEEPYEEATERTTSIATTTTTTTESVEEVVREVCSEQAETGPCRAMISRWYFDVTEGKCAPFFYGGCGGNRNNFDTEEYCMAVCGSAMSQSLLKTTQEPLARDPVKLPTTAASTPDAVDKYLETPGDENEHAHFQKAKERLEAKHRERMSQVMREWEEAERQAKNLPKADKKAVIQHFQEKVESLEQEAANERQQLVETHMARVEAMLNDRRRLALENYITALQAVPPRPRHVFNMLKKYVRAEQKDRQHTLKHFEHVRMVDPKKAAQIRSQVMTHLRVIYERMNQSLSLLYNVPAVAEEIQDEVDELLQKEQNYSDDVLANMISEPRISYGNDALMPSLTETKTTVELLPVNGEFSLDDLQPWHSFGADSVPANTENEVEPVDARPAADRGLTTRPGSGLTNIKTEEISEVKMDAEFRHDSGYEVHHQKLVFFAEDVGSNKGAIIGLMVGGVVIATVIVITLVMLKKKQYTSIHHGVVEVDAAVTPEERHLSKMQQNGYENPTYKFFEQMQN
UniProt P50750, whole entry: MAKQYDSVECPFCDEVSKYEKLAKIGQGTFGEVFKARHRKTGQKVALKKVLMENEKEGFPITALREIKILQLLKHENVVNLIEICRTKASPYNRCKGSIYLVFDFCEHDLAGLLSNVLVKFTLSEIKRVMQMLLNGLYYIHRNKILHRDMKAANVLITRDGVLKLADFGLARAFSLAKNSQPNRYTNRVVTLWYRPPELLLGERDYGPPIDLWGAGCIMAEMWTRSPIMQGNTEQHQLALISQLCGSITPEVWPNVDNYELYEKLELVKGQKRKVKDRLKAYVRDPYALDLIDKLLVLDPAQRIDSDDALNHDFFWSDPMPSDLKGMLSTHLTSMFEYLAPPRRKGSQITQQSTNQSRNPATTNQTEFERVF

SMILES = N=C(N)NCCC[C@H](NC(=O)c1cc(C(=O)O)cc([C@H]2CCN[C@@H]2C(=O)O)c1)C(=O)O; target = AMPA receptor (rat); test = binding, radioligand binding; test system = rat cortical synaptosomes; setting = added: [3H]AMPA; IC50 = 10000 nM
SMILES = NC(=O)c1ccc(-c2cc3c(nn2)-c2ccccc2C3=O)cc1; target = ALK tyrosine kinase receptor (ALK, Homo sapiens, UniProt Q9UM73); test = ELISA; IC50 = 35000 nM
SMILES = NC(=O)c1cn(-c2ccc(F)cc2)c2ccc(Nc3cccnc3)cc2c1=O; target = Metabotropic glutamate receptor 2 (Grm2, Rattus norvegicus, UniProt P31421); test = calcium mobilization, negative allosteric modulator; IC50 = 328 nM
SMILES = CN1CCC[C@@H]1C(=O)N[C@@H](Cc1ccc(-c2ccccn2)cc1)B(O)O; target = Proteasome subunit beta type-2, β2 subunit (Plasmodium falciparum, UniProt Q8I261+Q8I6T3); test = enzyme activity, inhibitor; setting = added: Ac-WLR-AMC; IC50 = > 10000 nM
SMILES = O=C1NC(=S)NC(=O)C1=Cc1cn(Cc2ccc3ccccc3c2)c2ncc(Cl)cc12; target = DNA polymerase eta (POLH, Homo sapiens, UniProt Q9Y253); test = DNA polymerase activity, inhibitor, fluorescence; setting = added: dTTP 100 µM; IC50 = 12000 nM
SMILES = Nc1ccc(F)cc1-c1nc2ccccc2[nH]c1=O; target = Protein diaphanous homolog 1, FH2 domain (Diaph1, Mus musculus, UniProt O08808); test = actin assembly, inhibitor, pyrene-actin polymerization; IC50 = > 50000 nM
SMILES = CC(F)(F)c1nc2nc(CO)cc(Nc3ccc(C(F)(F)F)nc3)n2n1; target = Dihydroorotate dehydrogenase (quinone), mitochondrial (PFF0160c, Plasmodium falciparum, UniProt Q08210); test = enzyme activity, inhibitor, DCIP reduction; IC50 = 88 nM
SMILES = O=C(OC(C(F)(F)F)C(F)(F)F)N1CCC(OC(c2ccc(F)cc2)c2ccc(F)cc2)CC1; target = Monoacylglycerol lipase ABHD6 (ABHD6, Homo sapiens, UniProt Q9BV23); test = inhibitor, fluorescence; IC50 = 1340 ± 15.6 nM
SMILES = O=C(Cn1c(-c2cscn2)nc2ccccc21)Nc1ccc(Br)cc1; target = Inosine-5'-monophosphate dehydrogenase 2 (IMPDH2, Homo sapiens, UniProt P12268); test = enzyme activity, inhibitor; scale = lower bound; IC50 = ≥ 20000 nM
SMILES = Cc1ccc2oc(-c3c4c(N)n[nH]c(=O)c4nn3-c3ccc(Cl)cc3)c(C)c2c1; target = Fibroblast growth factor receptor 1 (FGFR1, Homo sapiens, UniProt P11362); test = kinase activity, inhibitor, ELISA; IC50 = 32.4 ± 6.2 nM
SMILES = COc1ccc(-c2nc(C(F)(F)F)nn2-c2ccc(OC)nc2)cc1; target = Prostaglandin G/H synthase 1 (PTGS1, Homo sapiens, UniProt P23219); test = thromboxane B2 production, inhibitor, enzyme immunoassay; test system = human whole blood; IC50 = 4 ± 5.9 nM
SMILES = O=C(CCCCCn1c(=S)[nH]c2ccccc2c1=O)N1CCN(c2ccc(Cl)c(Cl)c2)CC1; target = Estrogen receptor (ESR1, Homo sapiens, UniProt P03372); test = reporter gene, antagonist; test system = HEC-1 cells transfected with ERα; setting = added: estradiol 1 nM; IC50 = 4200 nM
SMILES = COc1cc([C@@H]2c3cc4c(cc3C=C(C=O)[C@H]2C(=O)OCc2ccc(CBr)cc2)OCO4)cc(OC)c1OC; target = Tubulin alpha/beta heterodimer (Leishmania infantum, UniProt A0A381MCS3+A4HTR0); test = tubulin polymerization, inhibitor; setting = 37 °C, added: tubulin 1.2 mg/mL; IC50 = 2000 nM and 2020 nM
SMILES = Cc1ccc2c(c1)CCN(C(=O)[C@@H](NC(=O)[C@H](CCCC(=O)O)NC(=O)[C@@H]1Cc3ccccc3N1)C(C)C)[C@@H]2C(=O)N[C@H](C=O)CC(=O)O; target = Cathepsin B (CTSB, Homo sapiens, UniProt P07858); test = enzyme activity, inhibitor; IC50 = 14300 nM
SMILES = Clc1ccc(C2(c3ccc(-c4ncnc5[nH]cnc45)cc3)CCNCC2)cc1; target = Serine/threonine-protein kinase LATS1 (LATS1, Homo sapiens, UniProt O95835); test = kinase activity, inhibitor, radiometric HotSpot; setting = added: ATP 10 µM; IC50 = 38 nM
SMILES = N#Cc1ccc2[nH]cc(/C=C/c3cccnc3)c2c1; target = Amyloid-beta precursor protein, amyloid-beta peptide (APP, Homo sapiens, UniProt P05067); test = Aβ42 oligomerisation, ELISA; IC50 = > 20000 nM
SMILES = O=C(Nc1ccc(-c2nc3ccccc3[nH]2)cc1)c1ccccc1F; target = Tyrosine-protein kinase SYK, with FCER1G (SYK, Homo sapiens, UniProt P43405); test = protein binding, inhibitor, TR-FRET; IC50 = > 100000 nM
SMILES = CCCC(=O)N1CCC(NC(=O)Nc2ccc(OC(F)(F)F)cc2)CC1; target = Bifunctional epoxide hydrolase 2 (EPHX2, Homo sapiens, UniProt P34913); test = enzyme activity, inhibitor, fluorescence; setting = added: CMNPC substrate; IC50 = 2.1 nM
SMILES = CN1CC[C@H](c2c(O)cc(O)c3c(=O)cc(-c4cccnc4)oc23)[C@H](O)C1; target = Cyclin-dependent kinase 9, with cyclin T1 (CDK9, Homo sapiens, UniProt P50750); test = inhibitor; setting = with cyclin T1, GST-CTD substrate; IC50 = 5.5 nM

Excerpt of the above:
SMILES = Cc1ccc2c(c1)CCN(C(=O)[C@@H](NC(=O)[C@H](CCCC(=O)O)NC(=O)[C@@H]1Cc3ccccc3N1)C(C)C)[C@@H]2C(=O)N[C@H](C=O)CC(=O)O; target = Cathepsin B (CTSB, Homo sapiens, UniProt P07858); test = enzyme activity, inhibitor; IC50 = 14300 nM
